Assay results of several laboratories.
Each line is one published result; not all experiments were run side by side. ± gives the spread as reported.

Structure (SMILES)	organism	test	test system	conditions	IC50
CNCc1ccc2c(c1)C[C@H](CNC(=N)N)[C@H]2NC(=O)C(=O)Nc1ccc(Cl)c(F)c1	HIV-1	pseudovirus infection, Env pseudovirus neutralisation	TZM-bl, clade B T/F isolate d15_410_787	–	3780 nM
COc1cc(O)c(-c2cc(-c3cc(-c4c(O)cc(OC)c5c4C[C@@H](C)N[C@@H]5C)c4cc(C)cc(OC)c4c3O)c(O)c3c(OC)cc(C)cc23)c2c1[C@@H](C)N[C@H](C)C2	Plasmodium falciparum	asexual parasite proliferation, SYBR Green I fluorescence	clinical isolate SB_05, Mozambique	–	49 ± 2.2 nM
Cc1cc(N2CCC(CO)(C3CC3)C2=O)cc(C(=O)NCc2cc(F)cc(-c3cnn(C)c3)c2)n1 (stereo not shown)	Plasmodium falciparum	parasite growth	conditional knockdown control line	72 h, together with: 12.5 nM anhydrotetracycline	245 nM
COc1ccc(Nc2n[nH]c3nc(-c4ccccc4)nc(N)c23)cc1OC	rhinovirus B42	viral cytopathic effect	HeLa	–	850 nM
COC1C=COC2(C)Oc3c(C)c(O)c4c(c3C2=O)C2=NC3(CCN(CC(C)C)CC3)NC2=C(NC(=O)C(C)=CC=CC(C)C(O)C(C)C(O)C(C)C(OC(=O)Nc2cnccn2)C1C)C4=O (stereo not shown)	Mycobacteroides abscessus	intracellular growth, visual read	THP-1 derived macrophages, ATCC 19977	–	39 nM
CSCC[C@H](NC(=O)[C@H](CCCCN)NC(=O)[C@H](CCCNC(=N)N)NC(=O)[C@H](CO)NC(=O)[C@H](Cc1c[nH]c2ccccc12)NC(=O)[C@H](CCCNC(=N)N)NC(=O)[C@H](CC(C)C)NC(=O)CN)C(=O)N1CCC[C@H]1C(=O)N[C@@H](CS)C(=O)N[C@H](C(=O)N[C@@H](CO)C(=O)O)C(C)C	Human immunodeficiency virus 1	viral replication, inhibitor	TZM-bl	–	> 10000 nM
Cc1cc(N2CC[C@@](C#N)(C3CC3)C2=O)cc(NC(=O)Cc2ccccc2)n1	Plasmodium falciparum	parasite growth	conditional knockdown control line	72 h, together with: 12.5 nM anhydrotetracycline	48 nM
N#Cc1ccc(Nc2n[nH]c3nc(-c4ccccc4)nc(N)c23)cc1	rhinovirus B42	viral cytopathic effect	HeLa	–	160 nM
CC1=N[C@H](C)Cc2c(-c3ccc(C)cc3)ccc(O)c21	Plasmodium falciparum	asexual parasite proliferation, SYBR Green I fluorescence	clinical isolate SB_05, Mozambique	–	923 ± 37 nM
Cc1ccc(Nc2n[nH]c3nc(-c4ccccc4)nc(N)c23)cc1	coxsackievirus B3	viral cytopathic effect	HeLa	–	300 nM
COc1cc2c(c(OC)c1)C(C)=[N+](c1ccc(OC)c3c(OC)cc(C)cc13)[C@@H](C)C2	Plasmodium falciparum	parasite growth, SYBR Green	NF54	blood stage	493 nM
Nc1nc(-c2ccccc2)nc2[nH]nc(Nc3cccc(C(F)(F)F)c3)c12	coxsackievirus B3	viral cytopathic effect	HeLa	–	10 nM
COc1cccc2c(-c3ccc(O)c4c3C[C@@H](C)N[C@@H]4C)c(C)cc(O)c12	Plasmodium falciparum	parasite growth, SYBR Green	NF54	blood stage	41.5 nM
O=C(CCCCCONC(=O)c1nc(-c2ccc(O)cc2)cs1)NO	Plasmodium berghei	parasite growth, bioluminescence	HC04, ANKA GFP-Luc, liver stage	–	24 nM
COCCN(C)CC(=O)NC(Cc1ccc(-c2ccccc2)cc1)B(O)O (stereo not shown)	Plasmodium berghei	liver schizont biomass	HepG2, liver stage	48 h	260 nM
Nc1nc(-c2ccccc2)nc2[nH]nc(Nc3ccc(F)cc3)c12	rhinovirus B42	viral cytopathic effect	HeLa	–	30 nM
COc1cccc2c(-c3ccc4c(c3O)[C@@H](C)N[C@H](C)C4)c(CO)cc(OC)c12	Plasmodium falciparum	asexual parasite growth, SYBR Green I	clinical isolate SB_04, Malawi	–	3.6 ± 0.7 nM
Nc1nc(-c2ccccc2)nc2[nH]nc(Nc3ccc(Cl)cc3)c12	rhinovirus B42	viral cytopathic effect	HeLa	–	10 nM
Oc1ccc(-c2ccc(O)c3ccccc23)c2c1C=NCC2	Plasmodium falciparum	asexual parasite proliferation, SYBR Green I fluorescence	HB3	–	1140 ± 140 nM
Nc1nc(-c2ccccc2)nc2[nH]nc(Nc3ccc(F)c(F)c3F)c12	rhinovirus B42	viral cytopathic effect	HeLa	–	10 nM
COc1cccc2c(-c3ccc(O)c4c3CCNC4)ccc(O)c12	Plasmodium falciparum	asexual parasite proliferation, SYBR Green I fluorescence	clinical isolate SB_05, Mozambique	–	381 ± 5.7 nM
COc1cncc(-c2cc(F)cc(CNC(=O)c3cc(N4CC[C@@](C#N)(C5CC5)C4=O)cc(C)n3)c2)c1	Plasmodium falciparum	parasite growth	conditional knockdown control line	120 h, together with: 3 nM anhydrotetracycline	274 nM

Excerpt of the above:
Structure (SMILES)	organism	test	test system	conditions	IC50
COCCN(C)CC(=O)NC(Cc1ccc(-c2ccccc2)cc1)B(O)O (stereo not shown)	Plasmodium berghei	liver schizont biomass	HepG2, liver stage	48 h	260 nM
COc1cccc2c(-c3ccc4c(c3O)[C@@H](C)N[C@H](C)C4)c(CO)cc(OC)c12	Plasmodium falciparum	asexual parasite growth, SYBR Green I	clinical isolate SB_04, Malawi	–	3.6 ± 0.7 nM
